Results from different studies.
Each numbered part is a random draw from the data of one study; scales do not carry over between parts. Substitutions count along the parent as printed.
UniProt Q38825, sequence (whole entry, looked up): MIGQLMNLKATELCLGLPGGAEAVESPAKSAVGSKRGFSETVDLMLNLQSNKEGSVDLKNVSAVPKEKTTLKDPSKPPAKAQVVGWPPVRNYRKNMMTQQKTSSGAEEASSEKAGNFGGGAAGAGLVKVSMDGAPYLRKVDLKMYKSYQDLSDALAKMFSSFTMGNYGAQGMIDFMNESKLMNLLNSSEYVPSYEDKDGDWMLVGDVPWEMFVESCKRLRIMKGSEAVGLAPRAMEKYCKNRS
UniProt Q9XID4, sequence (whole entry, looked up): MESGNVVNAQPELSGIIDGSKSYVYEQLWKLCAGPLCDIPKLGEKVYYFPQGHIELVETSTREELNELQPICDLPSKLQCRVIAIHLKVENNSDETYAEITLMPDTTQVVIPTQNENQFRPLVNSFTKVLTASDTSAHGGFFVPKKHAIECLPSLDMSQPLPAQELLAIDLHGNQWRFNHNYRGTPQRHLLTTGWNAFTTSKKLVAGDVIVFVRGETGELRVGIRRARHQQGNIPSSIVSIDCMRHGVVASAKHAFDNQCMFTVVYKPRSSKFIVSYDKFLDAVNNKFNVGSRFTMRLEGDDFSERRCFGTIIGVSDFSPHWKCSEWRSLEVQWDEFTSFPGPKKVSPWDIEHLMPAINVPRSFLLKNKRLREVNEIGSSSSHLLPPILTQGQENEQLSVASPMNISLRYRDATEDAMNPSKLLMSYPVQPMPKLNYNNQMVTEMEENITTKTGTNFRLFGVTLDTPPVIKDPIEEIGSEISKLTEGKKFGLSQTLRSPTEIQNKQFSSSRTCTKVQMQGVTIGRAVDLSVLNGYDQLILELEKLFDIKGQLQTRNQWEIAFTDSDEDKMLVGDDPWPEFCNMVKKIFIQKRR
UniProt Q8L7G0, sequence (whole entry, looked up): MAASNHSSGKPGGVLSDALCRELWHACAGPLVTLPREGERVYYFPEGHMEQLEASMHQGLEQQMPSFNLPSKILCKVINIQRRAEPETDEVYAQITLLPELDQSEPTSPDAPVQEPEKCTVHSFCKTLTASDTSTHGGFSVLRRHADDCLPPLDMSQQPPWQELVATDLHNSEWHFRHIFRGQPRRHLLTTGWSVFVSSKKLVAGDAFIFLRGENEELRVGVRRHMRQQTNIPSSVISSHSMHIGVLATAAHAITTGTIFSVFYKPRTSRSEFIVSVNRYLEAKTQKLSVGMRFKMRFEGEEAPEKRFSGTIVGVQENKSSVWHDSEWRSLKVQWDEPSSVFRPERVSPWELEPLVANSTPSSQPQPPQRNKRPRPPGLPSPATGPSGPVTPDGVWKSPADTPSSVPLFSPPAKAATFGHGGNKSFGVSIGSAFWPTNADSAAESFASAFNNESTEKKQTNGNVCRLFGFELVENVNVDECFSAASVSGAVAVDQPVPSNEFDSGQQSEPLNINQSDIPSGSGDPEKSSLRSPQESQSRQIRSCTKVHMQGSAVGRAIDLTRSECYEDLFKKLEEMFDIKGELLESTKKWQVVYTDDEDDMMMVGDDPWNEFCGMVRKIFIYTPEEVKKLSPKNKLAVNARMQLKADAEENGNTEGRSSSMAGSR
UniProt Q9FX25, sequence (whole entry, looked up): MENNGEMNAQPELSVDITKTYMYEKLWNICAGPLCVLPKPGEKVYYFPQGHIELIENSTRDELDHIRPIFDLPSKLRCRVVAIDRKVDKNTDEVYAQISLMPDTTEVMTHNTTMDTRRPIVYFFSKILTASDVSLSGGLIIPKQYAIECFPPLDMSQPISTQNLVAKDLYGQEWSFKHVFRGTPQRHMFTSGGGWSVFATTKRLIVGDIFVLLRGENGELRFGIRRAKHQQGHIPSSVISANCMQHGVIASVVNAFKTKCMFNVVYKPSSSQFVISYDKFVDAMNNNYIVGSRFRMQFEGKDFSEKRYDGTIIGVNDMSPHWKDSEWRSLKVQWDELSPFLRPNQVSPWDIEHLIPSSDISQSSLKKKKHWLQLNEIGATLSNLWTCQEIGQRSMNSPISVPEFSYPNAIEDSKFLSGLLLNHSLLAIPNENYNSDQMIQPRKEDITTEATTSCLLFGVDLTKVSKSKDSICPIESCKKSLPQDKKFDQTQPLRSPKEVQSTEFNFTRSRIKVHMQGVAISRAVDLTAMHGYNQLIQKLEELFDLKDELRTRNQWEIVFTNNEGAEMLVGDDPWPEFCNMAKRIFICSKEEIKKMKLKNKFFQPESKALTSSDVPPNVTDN
UniProt Q9ZSY8, sequence (whole entry, looked up): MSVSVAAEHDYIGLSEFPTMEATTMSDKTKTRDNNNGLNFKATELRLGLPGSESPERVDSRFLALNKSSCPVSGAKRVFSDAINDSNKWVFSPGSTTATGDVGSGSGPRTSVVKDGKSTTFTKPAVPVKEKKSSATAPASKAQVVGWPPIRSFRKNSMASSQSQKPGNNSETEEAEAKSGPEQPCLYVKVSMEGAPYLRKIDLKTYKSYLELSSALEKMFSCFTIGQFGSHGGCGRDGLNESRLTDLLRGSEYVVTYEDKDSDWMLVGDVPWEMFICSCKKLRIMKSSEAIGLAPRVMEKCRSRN
UniProt O23661, sequence (whole entry, looked up): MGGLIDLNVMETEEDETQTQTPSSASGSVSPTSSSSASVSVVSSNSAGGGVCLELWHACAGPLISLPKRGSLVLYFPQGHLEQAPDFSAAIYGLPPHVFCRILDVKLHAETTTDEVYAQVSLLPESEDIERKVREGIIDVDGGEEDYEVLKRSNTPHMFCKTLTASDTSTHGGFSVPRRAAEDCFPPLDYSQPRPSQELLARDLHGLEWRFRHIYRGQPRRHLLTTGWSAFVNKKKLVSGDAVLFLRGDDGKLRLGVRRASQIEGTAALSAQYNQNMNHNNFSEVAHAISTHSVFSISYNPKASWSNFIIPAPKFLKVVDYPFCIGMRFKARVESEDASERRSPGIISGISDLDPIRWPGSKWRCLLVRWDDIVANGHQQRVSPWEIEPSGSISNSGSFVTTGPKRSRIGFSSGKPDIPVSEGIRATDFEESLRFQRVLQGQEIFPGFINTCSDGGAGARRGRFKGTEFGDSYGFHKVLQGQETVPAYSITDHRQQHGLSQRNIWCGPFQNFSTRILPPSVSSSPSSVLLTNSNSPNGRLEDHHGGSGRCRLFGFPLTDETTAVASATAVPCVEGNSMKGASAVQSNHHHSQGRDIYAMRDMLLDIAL
UniProt Q9LQE8, sequence (whole entry, looked up): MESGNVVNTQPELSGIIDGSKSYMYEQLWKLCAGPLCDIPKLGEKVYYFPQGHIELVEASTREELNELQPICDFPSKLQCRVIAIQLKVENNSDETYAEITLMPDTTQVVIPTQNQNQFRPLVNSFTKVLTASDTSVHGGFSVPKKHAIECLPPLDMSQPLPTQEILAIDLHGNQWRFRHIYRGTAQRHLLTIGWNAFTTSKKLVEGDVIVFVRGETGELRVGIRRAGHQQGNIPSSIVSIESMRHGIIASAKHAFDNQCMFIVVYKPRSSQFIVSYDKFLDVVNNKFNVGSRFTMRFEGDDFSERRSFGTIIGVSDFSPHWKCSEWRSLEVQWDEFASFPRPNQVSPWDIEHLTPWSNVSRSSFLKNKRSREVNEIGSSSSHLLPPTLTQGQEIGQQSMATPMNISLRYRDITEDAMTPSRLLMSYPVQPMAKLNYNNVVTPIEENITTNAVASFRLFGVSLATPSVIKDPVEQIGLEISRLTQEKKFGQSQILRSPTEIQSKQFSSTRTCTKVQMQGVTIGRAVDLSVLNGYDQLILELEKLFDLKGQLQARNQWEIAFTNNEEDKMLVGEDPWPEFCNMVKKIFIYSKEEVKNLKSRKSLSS
UniProt Q8RYC8, sequence (whole entry, looked up): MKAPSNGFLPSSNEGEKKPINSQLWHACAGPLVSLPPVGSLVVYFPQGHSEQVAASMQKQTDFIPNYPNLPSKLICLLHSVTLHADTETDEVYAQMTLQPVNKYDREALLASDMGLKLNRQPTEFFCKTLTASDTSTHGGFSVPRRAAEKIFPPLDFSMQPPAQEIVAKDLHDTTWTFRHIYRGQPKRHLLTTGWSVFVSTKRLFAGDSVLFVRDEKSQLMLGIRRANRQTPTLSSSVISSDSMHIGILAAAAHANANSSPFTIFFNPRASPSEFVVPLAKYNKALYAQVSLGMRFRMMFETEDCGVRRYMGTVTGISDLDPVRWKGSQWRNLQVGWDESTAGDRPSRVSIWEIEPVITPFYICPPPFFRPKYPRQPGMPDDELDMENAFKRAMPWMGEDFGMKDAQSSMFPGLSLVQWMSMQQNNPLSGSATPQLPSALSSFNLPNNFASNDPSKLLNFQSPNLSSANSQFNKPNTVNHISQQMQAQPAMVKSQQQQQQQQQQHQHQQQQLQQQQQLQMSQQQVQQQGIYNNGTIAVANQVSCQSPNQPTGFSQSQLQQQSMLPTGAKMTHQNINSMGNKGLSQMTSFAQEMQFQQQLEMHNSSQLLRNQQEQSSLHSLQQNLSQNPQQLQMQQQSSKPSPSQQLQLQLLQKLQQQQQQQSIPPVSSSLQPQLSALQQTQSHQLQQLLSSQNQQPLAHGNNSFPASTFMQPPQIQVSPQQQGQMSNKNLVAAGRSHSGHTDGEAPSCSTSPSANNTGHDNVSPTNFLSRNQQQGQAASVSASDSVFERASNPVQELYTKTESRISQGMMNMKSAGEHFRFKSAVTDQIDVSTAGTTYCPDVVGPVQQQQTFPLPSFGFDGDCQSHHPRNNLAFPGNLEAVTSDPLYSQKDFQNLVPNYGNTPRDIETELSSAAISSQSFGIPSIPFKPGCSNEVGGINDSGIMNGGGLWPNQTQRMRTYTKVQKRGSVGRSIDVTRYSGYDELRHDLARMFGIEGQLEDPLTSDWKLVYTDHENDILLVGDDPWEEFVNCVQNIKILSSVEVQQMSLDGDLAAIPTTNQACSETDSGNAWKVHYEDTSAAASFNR
UniProt Q38830, sequence (whole entry, looked up): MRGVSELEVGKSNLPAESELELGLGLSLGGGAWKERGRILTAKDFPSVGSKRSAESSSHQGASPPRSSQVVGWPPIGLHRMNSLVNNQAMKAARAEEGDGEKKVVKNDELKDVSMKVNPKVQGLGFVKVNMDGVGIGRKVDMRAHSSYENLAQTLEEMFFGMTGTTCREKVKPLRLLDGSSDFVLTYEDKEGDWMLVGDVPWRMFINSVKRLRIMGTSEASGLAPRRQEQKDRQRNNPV

Study 1 — target: CCND3, cyclin fold, Cln2 fusion (human); technique: yeast growth competition, sequencing; matrix: yeast; notes: weak parent motif; baseline: not given; reading: higher = stronger binding
Starting sequence: CDC6 docking peptide (human); TLKGRRLVFDNQL; partner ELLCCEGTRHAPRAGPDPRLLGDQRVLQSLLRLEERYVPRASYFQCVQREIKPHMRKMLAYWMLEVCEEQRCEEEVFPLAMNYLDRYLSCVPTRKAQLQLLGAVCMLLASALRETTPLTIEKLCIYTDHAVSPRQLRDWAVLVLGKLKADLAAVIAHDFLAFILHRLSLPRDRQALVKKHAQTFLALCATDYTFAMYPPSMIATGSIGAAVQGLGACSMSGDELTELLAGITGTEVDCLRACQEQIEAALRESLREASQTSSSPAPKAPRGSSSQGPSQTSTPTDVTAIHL
| Variant | normalised enrichment score |
| --- | --- |
| TLKGRRLVVDNQL [F9V] | -0.00676 |
| TLKGRRLVFDNTL [Q12T] | 0.147 |
| TLKGRRLDFDNQL [V8D] | 0.161 |
| TLKGRRCVFDNQL [L7C] | 0.0489 |
| DLKGRRLVFDNQL [T1D] | 0.0586 |
| TLKGRRLVFDNAL [Q12A] | 0.112 |
| TLKGRRLEFDNQL [V8E] | 0.141 |
| TLKGRRLFFDNQL [V8F] | 0.15 |
| TLKGRRLTFDNQL [V8T] | 0.136 |
| TLLGRRLVFDNQL [K3L] | 0.144 |
| TLKVRRLVFDNQL [G4V] | 0.132 |
| TLKGRLLVFDNQL [R6L] | 0.105 |
| TLKGRRLVIDNQL [F9I] | 0.214 |
| TLKERRLVFDNQL [G4E] | 0.0386 |
| TLKGRRLVFVNQL [D10V] | 0.0151 |
| TLKGRDLVFDNQL [R6D] | 0.102 |
| TCKGRRLVFDNQL [L2C] | 0.0954 |
| TLKGRRLVFDNQW [L13W] | 0.241 |
| TLKGRRLVFDNQY [L13Y] | 0.157 |
| TLKGRRLVFDNQF [L13F] | 0.127 |
| TLKGRRHVFDNQL [L7H] | 0.0372 |
| RLKGRRLVFDNQL [T1R] | 0.13 |

Study 2 — technique: DHFR PCA, deep sequencing; matrix: yeast; added: (+)-ABA 0.032 µM; baseline: wild-type fitted maximum; reading: higher = stronger binding
Target: ABI1, truncated, D143A, DHFR fusion (Arabidopsis thaliana)
Notes: methotrexate growth selection, single substitutions
Starting sequence: PYL1, truncated, DHFR fusion (Arabidopsis thaliana); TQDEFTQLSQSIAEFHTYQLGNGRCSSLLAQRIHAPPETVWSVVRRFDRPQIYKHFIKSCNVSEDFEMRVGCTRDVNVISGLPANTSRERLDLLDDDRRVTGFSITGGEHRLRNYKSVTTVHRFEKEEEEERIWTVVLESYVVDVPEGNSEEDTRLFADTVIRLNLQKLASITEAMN
| Variant | relative binding score [%] |
| --- | --- |
| L29W | 0.0277 |
| N85M | 63.8 |
| E125K | 30.5 |
| D65W | 0.698 |
| D75M | 24.8 |
| I12Y | -4.54 |
| E174T | 0.546 |
| N165E | 4.51 |
| F56M | -4.29 |
| F5W | 32.2 |
| K126P | 52.7 |
| S87H | 43.7 |
| Y141V | -0.451 |
| V78A | 2.42 |
| L166D | 3.97 |
| F47N | 2.24 |
| D65P | 41.1 |
| S27M | 2.27 |
| N61Q | 49.8 |
| V118Y | 4.05 |
| T1K | 15.3 |
| V121M | 7.12 |
| S63E | 21.2 |
| V43D | 0.677 |

Study 3 — Molecule: B1 (IAA5); technique: two-hybrid; baseline: out of 4 tests; reading: higher = firmer interaction
B1: IAA5 (Arabidopsis thaliana, UniProt P33078); chain MANESNNLGLEITELRLGLPGDIVVSGESISGKKRASPEVEIDLKCEPAKKSQVVGWPPVCSYRRKNSLERTKSSYVKVSVDGAAFLRKIDLEMYKCYQDLASALQILFGCYINFDDTLKESECVPIYEDKDGDWMLAGDVPWEMFLGSCKRLRIMKRSCNRG
| partner | positive tests |
| --- | --- |
| IAA7 (Arabidopsis thaliana, UniProt Q38825) | 3 |
| ARF1 538-665 (Arabidopsis thaliana, UniProt Q8L7G0) | 0 |
| ARF19 948-1086 (Arabidopsis thaliana, UniProt Q8RYC8) | 4 |
| IAA12 (Arabidopsis thaliana, UniProt Q38830) | 3 |
| IAA27 (Arabidopsis thaliana, UniProt Q9ZSY8) | 4 |
| ARF14 497-605 (Arabidopsis thaliana, UniProt Q9LQE8) | 2 |
| ARF12 500-593 (Arabidopsis thaliana, UniProt Q9XID4) | 0 |
| ARF13 (Arabidopsis thaliana, UniProt Q9FX25) | 0 |
| ETT (Arabidopsis thaliana, UniProt O23661) | 0 |

Study 4 — technique: RNA Bind-n-Seq; molecule type: RNA; matrix: in vitro; concentration: 365 nM; baseline: no-protein control; reading: higher = stronger binding
Target: RNA binding protein fox-1 homolog 2, RRM domain, GST-SBP tag (RBFOX2, Homo sapiens, UniProt O43251-10, residues 100-194)
Notes: natural RNA segment, single round, ends assumed
Constant ends, left off below: GGGAGUUCUACAGUCCGACGAUC … UGGAAUUCUCGGGUGCCAA
Target sequence (chain): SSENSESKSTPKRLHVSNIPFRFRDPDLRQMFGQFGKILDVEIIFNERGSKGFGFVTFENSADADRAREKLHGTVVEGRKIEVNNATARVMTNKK
| Strand | RBNS enrichment (R) |
| --- | --- |
| AGGUGGAGGCAUCAAUCUGUUGGGUUCUGGUUCCCGGCUGCCUUUGGUUUUGAAAGUCUCUUCUCUGUAUAUUCCUACCCUGCAUUUGCUUUGUGUGGUGCUGAUGCUGU | 1.21 |
| CCAUGGUGAUACAGCUCUGUGUGAUUCAAGUUCUGGCAGAGCUUGUAAGGCUAGAGCCCAGGUCUGCCGACACCCUGUGCUUGUUGCACACUUGAUUUGCUAAGGCUGGA | 0.502 |
| AAGAACUAAAUAUGAGUACAUAAAAUUCUAUCUUUGAUAAAUUUUAUUUUUAUGCCCUACUUAAUAUUUGCAUCAGUAUAAUAUAUAUCAGUGAGUCUUACAGAAAGAUA | 0.586 |
| UGGACAAAAGGUUAUCUGCUCUUGGCCAUCUGGUGGUGGUGGCGGCCCAGAGUCUGAAGAAAUGGCACAGGGACAGUGAAUGGUAGUGUUGCCACCCUGUGCUGAGGCCU | 1.42 |
| GAAAAUAACCCCUGAUUGGUAGGAUCAUAGUUCUAAAUGGAAAUGUUUGUAAUUCUUUGAUGUGCUACAAACCUGAAACUGGUAAGACAAGCACAAAGCAACGUGCAAUA | 0.314 |
| GUUUUGAAGUCAUCUUAGCUUUCCACAGGAGGGAGAGAACUUAAAAAAGCAACAGUAGCAGGGAAUUGAUCCACUUCUUAAUGCUUUCCUCCCUGGCAUGACCAUCCUGU | 3.43 |
| AAAAACUAGCUCAUUAAAGAUGAAAUAGACCAGCUCUCUUCAGUGAAGAGGACAAAUAGUUUAUUUAAAGCAUUUGUUCCAAUAAAAUAAAUAGAGGGAAACUUGGAUGC | 0.296 |
| UGUGUGUUUAAUUUUUGCUUCAAGCUCUGUAGCAGGACCUGCCCCACGCACACCCCUACCCCUCUGUGAGGAGCUGUGGGAAGUGUGGGUUUGUCUCCAGAACAGAAGAG | 0.231 |
| AACAAAUGUGCCCACCCCACCUUCCACUUAAAGAAAAAAAAUCUCAAAAUAAAUUUCUGAAUUAUGCAUCAUAAAGCUUUGAAAUUUCUUUUUUAAUUGAUGGGAUACUA | 1.11 |
| GAUAUUGUUAGGUGGAAUAACUUAGAAUAAAAUGAGAAUUCUUGAGUUAUAUUUUGUACUAUGGUUUAGGGCUAUGACUAAUAUUUCAGGCCAUUUCCAGUGAAAGAAAC | 0.641 |
| GCCCGGGGAGUAGCCCUGGGGGAGAGAGGGCAGUGUUGCCUAUCCCAGAGGUCCCAGCAGUCACACUGCUCUGCAGGCCGGGCUCUCUUUAUAGCCAGAGAAAUCACCUU | 0.14 |
| AUUUUUGUAGUGACCUGUUUAUGAGAUGCUGGUUUUCUACCCAACGGCCCUGCAGCCAGCUCACGUCCAGGUUCAACCCACAGCUACUUGGUUUGUGUUCUUCUUCAUAU | 0.214 |

For quick reference, copied from above (study 1):
| Variant | normalised enrichment score |
| --- | --- |
| TLKGRRLVFVNQL [D10V] | 0.0151 |
| TLKGRDLVFDNQL [R6D] | 0.102 |
| TCKGRRLVFDNQL [L2C] | 0.0954 |
| TLKGRRLVFDNQW [L13W] | 0.241 |
| TLKGRRLVFDNQY [L13Y] | 0.157 |
| TLKGRRLVFDNQF [L13F] | 0.127 |
| TLKGRRHVFDNQL [L7H] | 0.0372 |
